Results collected from several papers.
Every numbered part comes from another study and shows a few of its results, in no order.
UniProt P31749, sequence (whole entry, looked up): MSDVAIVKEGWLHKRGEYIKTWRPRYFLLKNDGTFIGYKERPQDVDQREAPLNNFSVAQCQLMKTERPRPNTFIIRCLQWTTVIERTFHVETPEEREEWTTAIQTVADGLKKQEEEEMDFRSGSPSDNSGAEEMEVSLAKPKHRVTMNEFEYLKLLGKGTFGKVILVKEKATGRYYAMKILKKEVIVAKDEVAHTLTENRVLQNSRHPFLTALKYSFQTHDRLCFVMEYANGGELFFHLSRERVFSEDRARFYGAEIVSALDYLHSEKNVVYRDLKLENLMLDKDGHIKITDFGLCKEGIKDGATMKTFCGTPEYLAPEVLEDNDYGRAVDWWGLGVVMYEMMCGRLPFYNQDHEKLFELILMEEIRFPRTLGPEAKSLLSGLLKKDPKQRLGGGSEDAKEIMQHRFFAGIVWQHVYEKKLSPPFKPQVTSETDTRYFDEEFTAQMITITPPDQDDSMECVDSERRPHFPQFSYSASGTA
UniProt Q92918, sequence (whole entry, looked up): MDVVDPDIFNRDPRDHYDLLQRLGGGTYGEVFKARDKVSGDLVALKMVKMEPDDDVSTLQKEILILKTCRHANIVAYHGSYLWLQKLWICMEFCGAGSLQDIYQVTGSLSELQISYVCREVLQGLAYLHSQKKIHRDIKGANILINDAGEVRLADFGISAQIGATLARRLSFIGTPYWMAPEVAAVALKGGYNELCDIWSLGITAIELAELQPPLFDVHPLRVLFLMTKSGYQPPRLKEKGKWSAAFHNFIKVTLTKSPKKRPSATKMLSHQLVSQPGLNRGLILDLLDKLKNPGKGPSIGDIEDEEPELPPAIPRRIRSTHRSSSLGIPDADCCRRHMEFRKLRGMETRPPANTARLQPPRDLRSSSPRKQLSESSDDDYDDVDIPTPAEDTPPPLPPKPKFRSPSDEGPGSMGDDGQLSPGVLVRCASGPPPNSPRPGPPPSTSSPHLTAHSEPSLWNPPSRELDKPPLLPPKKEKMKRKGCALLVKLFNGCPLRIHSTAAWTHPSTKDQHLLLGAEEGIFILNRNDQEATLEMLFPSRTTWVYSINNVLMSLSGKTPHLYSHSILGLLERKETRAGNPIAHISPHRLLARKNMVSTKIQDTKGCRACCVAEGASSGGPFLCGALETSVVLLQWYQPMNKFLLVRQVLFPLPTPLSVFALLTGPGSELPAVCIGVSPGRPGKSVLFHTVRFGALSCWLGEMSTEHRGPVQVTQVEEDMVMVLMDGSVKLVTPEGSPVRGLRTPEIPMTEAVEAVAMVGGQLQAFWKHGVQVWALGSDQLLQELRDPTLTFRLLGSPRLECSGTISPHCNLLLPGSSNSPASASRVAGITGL
UniProt Q09013, sequence (whole entry, looked up): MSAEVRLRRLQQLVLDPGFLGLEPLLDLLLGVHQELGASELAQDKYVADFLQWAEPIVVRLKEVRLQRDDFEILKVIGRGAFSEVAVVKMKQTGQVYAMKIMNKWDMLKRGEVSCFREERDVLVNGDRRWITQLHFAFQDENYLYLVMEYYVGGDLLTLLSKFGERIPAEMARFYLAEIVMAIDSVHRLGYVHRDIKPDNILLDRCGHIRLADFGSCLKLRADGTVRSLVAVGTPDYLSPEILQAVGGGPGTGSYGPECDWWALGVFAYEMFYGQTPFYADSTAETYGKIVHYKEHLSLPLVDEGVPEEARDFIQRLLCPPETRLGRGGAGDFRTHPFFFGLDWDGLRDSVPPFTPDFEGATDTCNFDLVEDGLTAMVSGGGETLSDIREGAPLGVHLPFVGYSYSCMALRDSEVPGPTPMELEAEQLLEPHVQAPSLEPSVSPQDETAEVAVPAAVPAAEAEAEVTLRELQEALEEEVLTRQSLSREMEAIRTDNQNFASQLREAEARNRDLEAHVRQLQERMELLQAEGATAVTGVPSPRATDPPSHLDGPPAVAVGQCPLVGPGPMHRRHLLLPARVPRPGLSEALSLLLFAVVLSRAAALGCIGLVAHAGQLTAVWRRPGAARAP
UniProt Q14289, sequence (whole entry, looked up): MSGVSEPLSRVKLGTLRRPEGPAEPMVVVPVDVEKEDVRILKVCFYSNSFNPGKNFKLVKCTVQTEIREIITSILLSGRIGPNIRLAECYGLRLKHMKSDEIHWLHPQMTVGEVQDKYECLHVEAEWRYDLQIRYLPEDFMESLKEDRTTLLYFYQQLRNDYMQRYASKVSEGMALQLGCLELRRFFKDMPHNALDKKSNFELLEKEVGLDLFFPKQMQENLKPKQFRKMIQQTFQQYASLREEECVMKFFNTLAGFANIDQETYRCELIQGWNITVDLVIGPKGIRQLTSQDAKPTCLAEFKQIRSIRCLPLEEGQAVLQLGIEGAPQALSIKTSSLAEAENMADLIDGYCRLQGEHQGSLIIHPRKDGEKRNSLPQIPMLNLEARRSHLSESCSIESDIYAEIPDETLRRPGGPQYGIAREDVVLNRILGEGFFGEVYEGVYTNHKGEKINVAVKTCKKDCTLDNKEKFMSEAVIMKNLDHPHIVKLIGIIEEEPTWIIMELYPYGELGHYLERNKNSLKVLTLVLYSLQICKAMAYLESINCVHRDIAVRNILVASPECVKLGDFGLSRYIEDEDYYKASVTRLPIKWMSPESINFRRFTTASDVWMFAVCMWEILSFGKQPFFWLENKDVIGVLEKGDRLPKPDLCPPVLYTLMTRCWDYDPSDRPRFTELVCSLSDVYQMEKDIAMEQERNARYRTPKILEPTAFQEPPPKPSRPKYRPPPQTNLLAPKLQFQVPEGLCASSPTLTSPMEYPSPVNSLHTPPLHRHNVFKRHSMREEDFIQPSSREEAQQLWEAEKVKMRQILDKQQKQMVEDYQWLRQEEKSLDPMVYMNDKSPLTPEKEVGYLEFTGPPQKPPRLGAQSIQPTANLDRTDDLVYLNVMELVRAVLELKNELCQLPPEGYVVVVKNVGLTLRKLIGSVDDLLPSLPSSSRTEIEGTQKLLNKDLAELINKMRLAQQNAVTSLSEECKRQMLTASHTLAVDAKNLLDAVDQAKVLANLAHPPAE
UniProt Q9H422, sequence (whole entry, looked up): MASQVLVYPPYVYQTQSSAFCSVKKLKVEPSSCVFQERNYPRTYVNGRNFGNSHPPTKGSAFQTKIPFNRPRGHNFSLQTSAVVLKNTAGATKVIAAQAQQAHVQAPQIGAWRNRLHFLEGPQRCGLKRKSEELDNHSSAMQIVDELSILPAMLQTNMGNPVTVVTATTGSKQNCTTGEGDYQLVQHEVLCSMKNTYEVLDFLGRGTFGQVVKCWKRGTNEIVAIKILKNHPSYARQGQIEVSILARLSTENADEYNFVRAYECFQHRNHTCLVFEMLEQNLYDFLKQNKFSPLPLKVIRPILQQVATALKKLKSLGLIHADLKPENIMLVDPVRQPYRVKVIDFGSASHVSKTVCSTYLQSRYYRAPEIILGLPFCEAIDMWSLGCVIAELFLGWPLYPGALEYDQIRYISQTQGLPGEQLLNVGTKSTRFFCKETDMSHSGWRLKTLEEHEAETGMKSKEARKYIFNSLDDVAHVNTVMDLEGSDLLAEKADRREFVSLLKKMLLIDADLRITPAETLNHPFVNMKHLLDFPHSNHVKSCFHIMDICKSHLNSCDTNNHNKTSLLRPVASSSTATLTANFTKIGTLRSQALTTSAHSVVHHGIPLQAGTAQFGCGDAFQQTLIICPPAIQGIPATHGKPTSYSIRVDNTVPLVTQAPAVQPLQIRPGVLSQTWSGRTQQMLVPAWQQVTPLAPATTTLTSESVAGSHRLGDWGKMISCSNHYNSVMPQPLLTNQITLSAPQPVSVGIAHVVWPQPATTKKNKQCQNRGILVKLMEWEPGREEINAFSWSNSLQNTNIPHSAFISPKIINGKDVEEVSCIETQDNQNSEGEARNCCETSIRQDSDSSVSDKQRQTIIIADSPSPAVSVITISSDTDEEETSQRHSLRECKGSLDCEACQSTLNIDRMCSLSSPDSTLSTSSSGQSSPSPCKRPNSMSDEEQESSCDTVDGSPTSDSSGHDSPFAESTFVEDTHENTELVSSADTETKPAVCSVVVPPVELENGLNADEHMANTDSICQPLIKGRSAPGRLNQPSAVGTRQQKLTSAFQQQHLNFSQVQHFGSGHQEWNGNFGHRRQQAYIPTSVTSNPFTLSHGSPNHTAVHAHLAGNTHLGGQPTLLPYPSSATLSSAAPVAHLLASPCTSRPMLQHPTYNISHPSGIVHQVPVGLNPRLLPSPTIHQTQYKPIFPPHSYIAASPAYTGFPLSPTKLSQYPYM
UniProt P16591, sequence (whole entry, looked up): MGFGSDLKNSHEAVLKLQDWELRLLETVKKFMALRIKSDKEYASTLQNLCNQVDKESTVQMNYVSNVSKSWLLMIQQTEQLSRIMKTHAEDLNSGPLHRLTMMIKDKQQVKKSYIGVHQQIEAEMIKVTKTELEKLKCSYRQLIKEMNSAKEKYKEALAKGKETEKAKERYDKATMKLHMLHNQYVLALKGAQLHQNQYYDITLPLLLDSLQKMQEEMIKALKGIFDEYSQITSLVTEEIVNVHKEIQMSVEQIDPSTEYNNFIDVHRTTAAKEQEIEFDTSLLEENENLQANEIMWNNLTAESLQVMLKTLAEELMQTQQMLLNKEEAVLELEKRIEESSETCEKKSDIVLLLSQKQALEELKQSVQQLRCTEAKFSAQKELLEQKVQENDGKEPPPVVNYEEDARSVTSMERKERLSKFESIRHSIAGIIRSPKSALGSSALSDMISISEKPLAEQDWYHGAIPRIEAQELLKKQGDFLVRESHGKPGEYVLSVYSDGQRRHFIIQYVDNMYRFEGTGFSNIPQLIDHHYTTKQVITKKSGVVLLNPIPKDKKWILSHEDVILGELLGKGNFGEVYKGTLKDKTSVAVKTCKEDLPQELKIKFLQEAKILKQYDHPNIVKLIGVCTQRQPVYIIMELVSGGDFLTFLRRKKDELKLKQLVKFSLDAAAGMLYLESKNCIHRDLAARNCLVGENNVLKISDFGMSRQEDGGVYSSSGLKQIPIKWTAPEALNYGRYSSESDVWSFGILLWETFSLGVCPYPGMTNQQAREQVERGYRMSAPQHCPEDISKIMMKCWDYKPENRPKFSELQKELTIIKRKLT

Sample 1
Target: PABPC1L2, full length, GST fusion (mouse, UniProt A0ABA7IW68)
Method: RNAcompete
Form: RNA
Medium: in vitro
Concentration: 20 nM
Notes: 7-mer, probes averaged, single round
Baseline: mean of 7-mers
Direction: higher = stronger binding
Target sequence (chain): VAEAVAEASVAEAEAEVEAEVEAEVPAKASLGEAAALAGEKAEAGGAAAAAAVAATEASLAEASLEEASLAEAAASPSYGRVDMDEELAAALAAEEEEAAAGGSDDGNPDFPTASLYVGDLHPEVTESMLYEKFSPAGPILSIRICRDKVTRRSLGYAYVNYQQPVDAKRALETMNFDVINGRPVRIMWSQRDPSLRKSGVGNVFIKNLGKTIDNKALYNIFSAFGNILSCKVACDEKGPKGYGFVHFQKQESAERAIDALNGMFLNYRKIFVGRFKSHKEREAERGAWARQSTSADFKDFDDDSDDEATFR
For `CGUAAGA`, the 7-mer Z-score was -0.264.
The 7-mer Z-score of `UCUGUCU` is reported as -0.441.
With `GCGCGUA` the 7-mer Z-score was -0.228.
For `GAGGUCC`, the 7-mer Z-score was -0.159.
The 7-mer Z-score of `UGUGCUU` is reported as -0.168.
`CGGCCGG` gave a 7-mer Z-score of -0.222.
The 7-mer Z-score of `CAGCGUU` is reported as -0.179.
`ACGCCAA` has a 7-mer Z-score of -0.159.

Sample 2
SMILES: CC(C)CC(=O)N1CCc2nc(-c3ccc(Br)cc3)nc(N(C)Cc3ccccc3)c2C1
Observed: cell-free assay
Method: competition with immobilised ligand
Concentration: 0.1 µM
The remaining binding was 100% (STK38 (Homo sapiens, UniProt Q15208)).
For Tyrosine-protein kinase JAK1, JH1 (JAK1, Homo sapiens, UniProt P23458): remaining binding read 100%.
It gave 100% for remaining binding (MAP3K11 (Homo sapiens, UniProt Q16584)).
The remaining binding was 64% (AKT3 (Homo sapiens, UniProt Q9Y243)).
The remaining binding was 81% (CASK (Homo sapiens, UniProt O14936)).
For FER (Homo sapiens, UniProt P16591): remaining binding read 100%.
For STK24 (Homo sapiens, UniProt Q9Y6E0): remaining binding read 100%.
AKT1 (Homo sapiens, UniProt P31749) — remaining binding: 92%.
For CDK18 (Homo sapiens, UniProt Q07002): remaining binding read 100%.
For EPHA4 (Homo sapiens, UniProt P54764): remaining binding read 100%.
It gave 67% for remaining binding (MELK (Homo sapiens, UniProt Q14680)).
It gave 92% for remaining binding (PTK2 (Homo sapiens, UniProt Q05397)).
The remaining binding was 77% (DYRK1B (Homo sapiens, UniProt Q9Y463)).
For STK16 (Homo sapiens, UniProt O75716): remaining binding read 100%.
The remaining binding was 94% (KIT (Homo sapiens, UniProt P10721, L576P)).
The remaining binding was 93% (MAP4K1 (Homo sapiens, UniProt Q92918)).
It gave 90% for remaining binding (ULK1 (Homo sapiens, UniProt O75385)).

Sample 3
Sequence: B1 (IAA34)
Method: two-hybrid
Direction: higher = firmer interaction
B1: IAA34 (Arabidopsis thaliana, UniProt Q9C5X0); chain MYCSDPPHPLHLVASDKQQKDHKLILSWKKPTMDSDPLGVFPNSPKYHPYYSQTTEFGGVIDLGLSLRTIQHEIYHSSGQRYCSNEGYRRKWGYVKVTMDGLVVGRKVCVLDHGSYSTLAHQLEDMFGMQSVSGLRLFQMESEFCLVYRDEEGLWRNAGDVPWNEFIESVERLRITRRNDAVLPF
It gave 0 for positive tests (ETT (Arabidopsis thaliana, UniProt O23661); baseline: out of 4 tests).
The positive tests was 0 (ARF20 484-590 (Arabidopsis thaliana, UniProt Q9C7I9); baseline: out of 2 tests).
For ARF8 699-811 (Arabidopsis thaliana, UniProt Q9FGV1); baseline: out of 2 tests: positive tests read 1.
It gave 0 for positive tests (ARF13 (Arabidopsis thaliana, UniProt Q9FX25); baseline: out of 2 tests).

Sample 4
SMILES: C[S+]([O-])c1ccc(-c2nc(-c3ccncc3)c(-c3ccc(F)cc3)[nH]2)cc1 (centres unmarked)
Observed: enzyme activity
Mode: inhibitor
Concentration: 0.5 µM
Baseline: control
For ROCK2 (Homo sapiens, UniProt O75116): remaining activity read 98.4%.
MAPK10 (Homo sapiens, UniProt P53779) — remaining activity: 114%.
For MAP3K8 (Homo sapiens, UniProt P41279): remaining activity read 92.1%.
It gave 99.3% for remaining activity (CAMK1G (Homo sapiens, UniProt Q96NX5)).
The remaining activity was 99.2% (DYRK4 (Homo sapiens, UniProt Q9NR20)).
The remaining activity was 103% (DMPK (Homo sapiens, UniProt Q09013)).
For BRSK1 (Homo sapiens, UniProt Q8TDC3): remaining activity read 97.9%.
RET (Homo sapiens, UniProt P07949) — remaining activity: 85.1%.
It gave 103% for remaining activity (HIPK3 (Homo sapiens, UniProt Q9H422)).
For NTRK3 (Homo sapiens, UniProt Q16288): remaining activity read 98%.
SLK (Homo sapiens, UniProt Q9H2G2) — remaining activity: 94.1%.
It gave 101% for remaining activity (Cyclin-dependent kinase 2, with cyclin A (CDK2, Homo sapiens, UniProt P24941)).
It gave 99.5% for remaining activity (Aurora kinase A (AURKA, Homo sapiens, UniProt O14965)).
It gave 104% for remaining activity (CSNK2A2 (Homo sapiens, UniProt P19784)).
For GRK5 (Homo sapiens, UniProt P34947): remaining activity read 104%.
The remaining activity was 95.3% (MAP3K2 (Homo sapiens, UniProt Q9Y2U5)).
The remaining activity was 92.5% (PTK2B (Homo sapiens, UniProt Q14289)).
It gave 99.1% for remaining activity (NEK9 (Homo sapiens, UniProt Q8TD19)).

For quick reference, copied from above (sample 4):
RET (Homo sapiens, UniProt P07949) — remaining activity: 85.1%.
The remaining activity was 95.3% (MAP3K2 (Homo sapiens, UniProt Q9Y2U5)).
The remaining activity was 103% (DMPK (Homo sapiens, UniProt Q09013)).
It gave 104% for remaining activity (CSNK2A2 (Homo sapiens, UniProt P19784)).
For NTRK3 (Homo sapiens, UniProt Q16288): remaining activity read 98%.
For GRK5 (Homo sapiens, UniProt P34947): remaining activity read 104%.
It gave 99.1% for remaining activity (NEK9 (Homo sapiens, UniProt Q8TD19)).
For MAP3K8 (Homo sapiens, UniProt P41279): remaining activity read 92.1%.
